{"data": "Assay results of several laboratories", "note": "Each numbered part is a random draw from the data of one study; scales do not carry over between parts. Several values in a cell are separate wells, animals, samples, runs or records. Substitutions count along the parent as printed.", "UniProt Q9UKR3, sequence (whole entry, looked up)": "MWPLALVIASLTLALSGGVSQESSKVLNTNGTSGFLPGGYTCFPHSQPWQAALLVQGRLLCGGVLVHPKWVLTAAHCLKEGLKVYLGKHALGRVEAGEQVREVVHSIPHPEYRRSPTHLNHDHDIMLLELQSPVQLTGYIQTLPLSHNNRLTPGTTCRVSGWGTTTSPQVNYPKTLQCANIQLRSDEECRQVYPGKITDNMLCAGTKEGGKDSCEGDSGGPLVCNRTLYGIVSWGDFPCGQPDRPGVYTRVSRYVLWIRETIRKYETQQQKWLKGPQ", "UniProt Q9Y337, sequence (whole entry, looked up)": "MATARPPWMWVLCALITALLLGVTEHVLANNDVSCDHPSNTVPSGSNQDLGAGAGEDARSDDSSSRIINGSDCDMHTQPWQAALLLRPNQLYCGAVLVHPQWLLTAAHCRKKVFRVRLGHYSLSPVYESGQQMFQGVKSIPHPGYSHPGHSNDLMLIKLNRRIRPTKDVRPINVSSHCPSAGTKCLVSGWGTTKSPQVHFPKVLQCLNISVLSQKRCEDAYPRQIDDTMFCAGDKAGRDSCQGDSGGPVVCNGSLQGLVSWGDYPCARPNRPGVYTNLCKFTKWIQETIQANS", "UniProt P03952, sequence (whole entry, looked up)": "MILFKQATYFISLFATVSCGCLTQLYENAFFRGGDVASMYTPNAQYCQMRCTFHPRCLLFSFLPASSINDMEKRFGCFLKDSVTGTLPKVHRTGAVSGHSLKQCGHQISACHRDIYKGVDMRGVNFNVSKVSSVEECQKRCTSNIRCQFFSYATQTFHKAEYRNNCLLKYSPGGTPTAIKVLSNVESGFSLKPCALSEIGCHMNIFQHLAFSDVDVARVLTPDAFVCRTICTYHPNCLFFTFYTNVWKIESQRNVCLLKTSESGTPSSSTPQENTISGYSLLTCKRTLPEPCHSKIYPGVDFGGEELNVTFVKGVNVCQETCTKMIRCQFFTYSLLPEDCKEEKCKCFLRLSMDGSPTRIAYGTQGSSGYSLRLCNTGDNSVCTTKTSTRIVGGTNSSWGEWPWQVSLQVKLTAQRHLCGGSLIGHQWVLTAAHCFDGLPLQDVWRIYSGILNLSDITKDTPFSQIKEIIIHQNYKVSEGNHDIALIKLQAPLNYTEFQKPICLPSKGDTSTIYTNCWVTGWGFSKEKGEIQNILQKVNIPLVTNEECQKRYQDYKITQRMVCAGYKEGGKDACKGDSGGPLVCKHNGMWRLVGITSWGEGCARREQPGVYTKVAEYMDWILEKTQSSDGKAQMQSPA", "UniProt Q8IU80, sequence (whole entry, looked up)": "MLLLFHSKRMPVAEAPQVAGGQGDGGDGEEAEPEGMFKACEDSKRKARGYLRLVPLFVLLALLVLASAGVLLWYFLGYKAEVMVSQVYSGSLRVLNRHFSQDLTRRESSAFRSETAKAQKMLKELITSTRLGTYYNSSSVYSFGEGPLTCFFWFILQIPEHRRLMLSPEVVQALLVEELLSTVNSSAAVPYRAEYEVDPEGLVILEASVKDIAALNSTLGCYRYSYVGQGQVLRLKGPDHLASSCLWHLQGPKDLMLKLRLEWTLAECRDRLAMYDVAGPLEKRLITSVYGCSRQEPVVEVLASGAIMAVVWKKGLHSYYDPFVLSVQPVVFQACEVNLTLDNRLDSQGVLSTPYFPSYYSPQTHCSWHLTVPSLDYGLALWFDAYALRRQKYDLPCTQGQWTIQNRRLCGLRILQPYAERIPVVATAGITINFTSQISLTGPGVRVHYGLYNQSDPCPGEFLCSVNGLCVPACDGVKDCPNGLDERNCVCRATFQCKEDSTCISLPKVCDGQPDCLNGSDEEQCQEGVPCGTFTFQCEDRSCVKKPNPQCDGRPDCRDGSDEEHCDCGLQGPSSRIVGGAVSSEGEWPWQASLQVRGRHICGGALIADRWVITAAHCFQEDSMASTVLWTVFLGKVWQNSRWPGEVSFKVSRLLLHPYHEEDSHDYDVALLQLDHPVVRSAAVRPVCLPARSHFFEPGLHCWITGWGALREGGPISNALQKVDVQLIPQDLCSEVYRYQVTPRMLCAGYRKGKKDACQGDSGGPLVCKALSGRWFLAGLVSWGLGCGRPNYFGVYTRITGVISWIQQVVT"}
{"data": "Study 1", "target": "CCNB2, cyclin fold, Cln2 fusion (human)", "technique": "yeast growth competition, sequencing", "matrix": "yeast", "notes": "strong parent motif", "relative to": "not given", "reading": "higher = stronger binding", "parent": "viral docking peptide; YKVKRRLVFGADD; partner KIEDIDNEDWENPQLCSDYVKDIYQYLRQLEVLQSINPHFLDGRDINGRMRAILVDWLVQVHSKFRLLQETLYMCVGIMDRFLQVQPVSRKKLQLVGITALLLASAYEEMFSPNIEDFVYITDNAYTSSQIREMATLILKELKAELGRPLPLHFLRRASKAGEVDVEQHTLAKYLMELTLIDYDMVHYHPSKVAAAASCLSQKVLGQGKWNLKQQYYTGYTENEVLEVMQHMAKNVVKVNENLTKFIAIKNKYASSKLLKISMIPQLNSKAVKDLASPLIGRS"}
{"Substitution": "A11S", "normalised enrichment score": 1.76}
{"Substitution": "V3L", "normalised enrichment score": 0.927}
{"Substitution": "R6E", "normalised enrichment score": 0.394}
{"Substitution": "V3Y", "normalised enrichment score": 0.337}
{"Substitution": "V8I", "normalised enrichment score": 1.45}
{"Substitution": "F9H", "normalised enrichment score": 0.483}
{"Substitution": "D12W", "normalised enrichment score": 0.981}
{"Substitution": "V3M", "normalised enrichment score": 0.365}
{"Substitution": "V3F", "normalised enrichment score": 0.516}
{"Substitution": "V8C", "normalised enrichment score": 1.77}
{"Substitution": "V8N", "normalised enrichment score": 1.7}
{"Substitution": "K4S", "normalised enrichment score": 0.719}
{"Substitution": "L7Q", "normalised enrichment score": 0.342}
{"Substitution": "R5I", "normalised enrichment score": 0.23}
{"Substitution": "G10Y", "normalised enrichment score": 1.57}
{"Substitution": "G10K", "normalised enrichment score": 1.59}
{"Substitution": "K4N", "normalised enrichment score": 1.14}
{"Substitution": "K4G", "normalised enrichment score": 0.264}
{"Substitution": "F9M", "normalised enrichment score": 0.606}
{"Substitution": "R5T", "normalised enrichment score": 0.365}
{"Substitution": "G10D", "normalised enrichment score": 3.57}
{"Substitution": "K2W", "normalised enrichment score": 0.626}
{"Substitution": "A11C", "normalised enrichment score": 1.42}
{"Substitution": "F9W", "normalised enrichment score": 0.92}
{"Substitution": "K4V", "normalised enrichment score": 0.404}
{"data": "Study 2", "target": "HLA class I histocompatibility antigen, A alpha chain, allele A*80:01 (Homo sapiens, UniProt P04439)", "effect on": "peptide-MHC binding", "molecule type": "peptide", "tested at": "concentration not given"}
{"Sequence": "WVIDTLNGI", "binding": "inactive"}
{"Sequence": "YTDKIAMSY", "binding": "active"}
{"Sequence": "IMYDHLPGF", "binding": "inactive"}
{"Sequence": "KHDEEFCDM", "binding": "inactive"}
{"Sequence": "AMDTHLYFE", "binding": "inactive"}
{"Sequence": "MKYVWPPIM", "binding": "inactive"}
{"Sequence": "YQRRRRFAI", "binding": "inactive"}
{"Sequence": "VTFGARASF", "binding": "inactive"}
{"Sequence": "AALEGLSGF", "binding": "inactive"}
{"Sequence": "LRYGNVLDV", "binding": "inactive"}
{"Sequence": "FNCGGEFFY", "binding": "inactive"}
{"Sequence": "SSDDFALIV", "binding": "inactive"}
{"Sequence": "AVGVVCTGL", "binding": "inactive"}
{"Sequence": "SCINGQCPY", "binding": "inactive"}
{"Sequence": "MHGHGKHIL", "binding": "inactive"}
{"Sequence": "DGAEGINPY", "binding": "inactive"}
{"Sequence": "LVKSAWLSL", "binding": "inactive"}
{"Sequence": "FHIVNQESL", "binding": "inactive"}
{"Sequence": "VIMWYNYLF", "binding": "inactive"}
{"Sequence": "TEGEGRVIL", "binding": "inactive"}
{"Sequence": "IGYRLGMGK", "binding": "inactive"}
{"Sequence": "WMRGRGRAL", "binding": "inactive"}
{"Sequence": "DRLASTVIY", "binding": "inactive"}
{"Sequence": "SLFTEQAFY", "binding": "active"}
{"Sequence": "DLRPYGLIK", "binding": "inactive"}
{"data": "Study 3", "target": "RING finger protein unkempt homolog, zinc fingers 1-6, GST-SBP tag (UNK, Homo sapiens, UniProt Q9C0B0, residues 30-357)", "technique": "RNA Bind-n-Seq", "molecule type": "RNA", "matrix": "in vitro", "tested at": "not given", "notes": "RNA with constant flanks, human-mouse chimeric sites, ends assumed", "relative to": "input RNA pool", "reading": "higher = stronger binding", "constant ends, left off below": "GGGAGUUCUACAGUCCGACGAUC … CAACAGAGGAUUGAGCAUCA", "Residues (chain)": "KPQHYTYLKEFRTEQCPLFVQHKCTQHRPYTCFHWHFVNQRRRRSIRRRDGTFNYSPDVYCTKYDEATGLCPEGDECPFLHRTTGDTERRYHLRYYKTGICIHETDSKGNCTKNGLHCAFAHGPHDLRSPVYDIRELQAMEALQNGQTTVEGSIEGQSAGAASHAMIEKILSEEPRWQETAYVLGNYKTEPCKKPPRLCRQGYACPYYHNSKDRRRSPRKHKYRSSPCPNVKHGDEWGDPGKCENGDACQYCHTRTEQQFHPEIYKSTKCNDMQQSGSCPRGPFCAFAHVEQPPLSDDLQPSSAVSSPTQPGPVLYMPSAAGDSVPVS"}
{"Strand": "CUGUGACCACAAGAUCCUACCUGAGUGUUCAGAUGGGCACUUUUCUUCUCCUUGCCUGAACCCCCCCCCACUGCCCCCCCAUCCCCCAGUGUCGGCUGAGAUGUUGCCUCUGCACGGUUC", "bound/input enrichment [ratio]": 1.32}
{"Strand": "GAAUCCUACUCAGGCGGAUUUUGCAACACCAAGCUCACAGCAGCAGCAUCUUAGUCACAGUAGGGUAGCUUUAGGGCUCUGUGGCCAGGGUUUUAUUCACAUGCAGGUUUUGAAAAUGUA", "bound/input enrichment [ratio]": 0.508}
{"Strand": "AAAGUGAUAACCAUGUUUGUCCAACGACAGGUAUUUUCGGAGAGCAAAGAUGAGAUUGCUUUAGUCCUCUAUGGCACAGAUGGCACUGAUAAUGCCCUUGCUGGCAAGGACCAGUAUCAG", "bound/input enrichment [ratio]": 0.235}
{"Strand": "CAGUCCCCGUGUCCCAGGGGACAAUGUUGUGAACAAAAACUCAAAGCGGACCCUCUAUUGUAGUUCUUUUUUUAAAUAAUGUGCUAUUAUUGUUUGUCUUUUUUUUUUUUUUUUUAAAGA", "bound/input enrichment [ratio]": 3.18}
{"Strand": "GUGUCCUGCUUUCAACUUAAAUCACUGAGGCAUCUCUACUGUUCUGUGAGCAUCAGGACUGUAGCGCUGUGUCACCACAUGAGAGUUGUUAAGCAGCCUUUCUGUGGAGAGUGAGAAUGA", "bound/input enrichment [ratio]": 0.053}
{"Strand": "CCAAUUGUGGAGCAGUACUUGAAGACAAAAAAGAACUCUAAUAAUUUAAUCAUCAAGUACAUUAGCUGCCGCCUGCUGACACUCAUCAUUAUACUGUUAGCGUGUAUCUACUUGAGCUAU", "bound/input enrichment [ratio]": 0.272}
{"Strand": "GUUGCCAGGUUCCGGUGCCGUUGGGCUCGGUUCUCUCCUGAGCUACGUGUCUCUACGCUCUCAAUCCCGGUUGGGUAAAACAUGGAUCAGGUAAUGCAGUUUGUGGAGCCCAGCCGGCAG", "bound/input enrichment [ratio]": 0.068}
{"Strand": "GAAUCCUCCCGUGCAAAAUUUUGCAACACCAAGCUCACAGCAGCAGCAUCUUAGUCACAGUAGGGUAGCUUUAGGGCUCUGUGGCCAGGGUUUUAUUCACAUGCAGGUUUGGAAAAUGUA", "bound/input enrichment [ratio]": 0.638}
{"data": "Study 4", "SMILES": "CCOC(=O)c1ccc(OC(=O)CCCCCNC(=N)N)cc1"}
{"target": "Transmembrane protease serine 6 (Homo sapiens, UniProt Q8IU80)", "IC50": "3.99 µM"}
{"target": "Plasma kallikrein (KLKB1, Homo sapiens, UniProt P03952)", "IC50": "0.112 µM"}
{"target": "Kallikrein-13 (Homo sapiens, UniProt Q9UKR3)", "IC50": "13.4 µM and > 10 µM"}
{"target": "Prothrombin (F2, Homo sapiens, UniProt P00734)", "IC50": "1.54 µM"}
{"target": "Kallikrein-5 (Homo sapiens, UniProt Q9Y337)", "IC50": "7.67 µM"}
